{"data": "Assay results collected from several papers", "Histone acetyltransferase RTT109 with Vps75": "Histone acetyltransferase RTT109, with Vps75 (Saccharomyces cerevisiae, UniProt Q07794)", "ALDH2": "Aldehyde dehydrogenase, mitochondrial (ALDH2, Homo sapiens, UniProt P05091)", "PIK3CA": "Phosphatidylinositol 4,5-bisphosphate 3-kinase catalytic subunit alpha isoform (PIK3CA, Homo sapiens, UniProt P42336)", "note": "Each line is one published result; not all experiments were run side by side. Numbers after ± are the reported error.", "UniProt Q07794, sequence (whole entry, looked up)": "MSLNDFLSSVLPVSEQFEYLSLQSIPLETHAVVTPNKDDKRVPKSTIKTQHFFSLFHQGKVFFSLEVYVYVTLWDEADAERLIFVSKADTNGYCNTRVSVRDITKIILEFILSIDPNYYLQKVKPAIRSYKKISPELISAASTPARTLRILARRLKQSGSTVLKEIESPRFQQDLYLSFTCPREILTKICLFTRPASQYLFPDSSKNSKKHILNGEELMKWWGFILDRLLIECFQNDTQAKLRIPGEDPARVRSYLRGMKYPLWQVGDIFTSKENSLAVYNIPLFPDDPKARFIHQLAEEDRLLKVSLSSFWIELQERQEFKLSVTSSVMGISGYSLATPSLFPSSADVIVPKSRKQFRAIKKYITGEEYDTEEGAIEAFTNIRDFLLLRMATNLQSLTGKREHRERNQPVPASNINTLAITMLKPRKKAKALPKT", "UniProt P05091, sequence (whole entry, looked up)": "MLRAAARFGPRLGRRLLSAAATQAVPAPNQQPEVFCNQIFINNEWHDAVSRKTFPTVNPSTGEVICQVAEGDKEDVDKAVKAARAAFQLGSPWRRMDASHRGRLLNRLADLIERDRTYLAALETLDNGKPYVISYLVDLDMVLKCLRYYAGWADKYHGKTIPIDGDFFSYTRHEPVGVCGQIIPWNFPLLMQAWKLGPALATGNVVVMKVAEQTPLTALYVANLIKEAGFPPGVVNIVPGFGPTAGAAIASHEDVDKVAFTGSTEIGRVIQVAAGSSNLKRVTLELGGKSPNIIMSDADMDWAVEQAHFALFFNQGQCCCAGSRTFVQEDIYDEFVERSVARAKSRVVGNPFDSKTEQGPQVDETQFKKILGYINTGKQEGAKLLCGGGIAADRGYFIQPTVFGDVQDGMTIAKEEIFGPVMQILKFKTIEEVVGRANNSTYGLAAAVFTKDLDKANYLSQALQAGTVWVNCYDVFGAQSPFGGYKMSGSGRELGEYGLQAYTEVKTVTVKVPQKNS", "UniProt P42336, sequence (whole entry, looked up)": "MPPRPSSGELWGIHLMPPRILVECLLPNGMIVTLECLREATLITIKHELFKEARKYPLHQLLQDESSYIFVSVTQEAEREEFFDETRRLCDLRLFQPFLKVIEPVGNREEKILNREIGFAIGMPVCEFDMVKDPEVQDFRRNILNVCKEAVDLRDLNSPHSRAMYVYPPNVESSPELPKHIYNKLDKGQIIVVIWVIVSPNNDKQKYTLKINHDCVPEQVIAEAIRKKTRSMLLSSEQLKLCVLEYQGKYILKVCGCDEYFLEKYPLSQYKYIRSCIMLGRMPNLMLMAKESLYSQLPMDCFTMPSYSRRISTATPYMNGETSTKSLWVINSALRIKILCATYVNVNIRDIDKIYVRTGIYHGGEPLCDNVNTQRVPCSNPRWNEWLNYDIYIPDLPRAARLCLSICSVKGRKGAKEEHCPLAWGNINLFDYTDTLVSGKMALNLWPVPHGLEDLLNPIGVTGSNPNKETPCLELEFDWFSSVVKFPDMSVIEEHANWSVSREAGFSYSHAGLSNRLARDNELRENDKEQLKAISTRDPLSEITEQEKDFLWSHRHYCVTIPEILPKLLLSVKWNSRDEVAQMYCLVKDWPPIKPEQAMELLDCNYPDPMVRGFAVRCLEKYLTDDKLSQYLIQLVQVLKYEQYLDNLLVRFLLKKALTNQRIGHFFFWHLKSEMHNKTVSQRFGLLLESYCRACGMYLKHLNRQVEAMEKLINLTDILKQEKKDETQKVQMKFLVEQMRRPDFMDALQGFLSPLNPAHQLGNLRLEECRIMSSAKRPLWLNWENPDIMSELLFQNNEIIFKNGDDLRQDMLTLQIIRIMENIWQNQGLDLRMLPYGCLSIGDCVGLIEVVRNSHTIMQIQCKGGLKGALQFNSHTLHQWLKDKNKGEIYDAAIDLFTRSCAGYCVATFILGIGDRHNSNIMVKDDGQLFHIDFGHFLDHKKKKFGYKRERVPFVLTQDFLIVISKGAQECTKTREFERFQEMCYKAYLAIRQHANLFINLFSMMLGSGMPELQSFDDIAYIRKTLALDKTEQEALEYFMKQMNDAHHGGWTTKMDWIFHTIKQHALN", "UniProt Q8TDX7, sequence (whole entry, looked up)": "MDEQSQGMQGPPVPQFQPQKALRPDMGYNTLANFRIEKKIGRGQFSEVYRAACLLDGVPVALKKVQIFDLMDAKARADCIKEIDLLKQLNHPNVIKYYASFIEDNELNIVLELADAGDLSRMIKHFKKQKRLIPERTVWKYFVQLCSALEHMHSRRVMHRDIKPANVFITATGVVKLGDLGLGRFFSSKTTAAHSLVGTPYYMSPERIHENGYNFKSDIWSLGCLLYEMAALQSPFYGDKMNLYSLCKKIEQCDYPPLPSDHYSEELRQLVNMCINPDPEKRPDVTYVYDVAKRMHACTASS", "UniProt P61823, sequence (whole entry, looked up)": "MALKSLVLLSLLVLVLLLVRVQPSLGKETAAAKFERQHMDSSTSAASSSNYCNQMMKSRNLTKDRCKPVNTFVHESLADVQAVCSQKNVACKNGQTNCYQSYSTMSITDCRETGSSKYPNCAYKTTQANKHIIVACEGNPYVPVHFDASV", "UniProt P53350, sequence (whole entry, looked up)": "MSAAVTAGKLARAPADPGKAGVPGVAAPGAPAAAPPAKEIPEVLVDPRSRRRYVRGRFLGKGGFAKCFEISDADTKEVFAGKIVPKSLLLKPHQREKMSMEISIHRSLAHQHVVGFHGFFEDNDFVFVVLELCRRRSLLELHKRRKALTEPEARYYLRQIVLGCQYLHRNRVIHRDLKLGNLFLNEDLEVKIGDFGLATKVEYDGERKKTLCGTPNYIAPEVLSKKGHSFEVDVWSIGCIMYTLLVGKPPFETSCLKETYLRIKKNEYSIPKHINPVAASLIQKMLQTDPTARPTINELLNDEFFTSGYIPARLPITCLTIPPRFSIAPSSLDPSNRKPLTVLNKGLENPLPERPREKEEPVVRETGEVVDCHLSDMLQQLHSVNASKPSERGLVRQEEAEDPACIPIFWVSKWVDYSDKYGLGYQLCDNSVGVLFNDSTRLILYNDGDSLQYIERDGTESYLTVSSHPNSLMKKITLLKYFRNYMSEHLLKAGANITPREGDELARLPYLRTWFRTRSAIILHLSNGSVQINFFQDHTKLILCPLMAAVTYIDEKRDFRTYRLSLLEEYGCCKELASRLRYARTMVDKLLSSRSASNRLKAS", "UniProt Q15910, sequence (whole entry, looked up)": "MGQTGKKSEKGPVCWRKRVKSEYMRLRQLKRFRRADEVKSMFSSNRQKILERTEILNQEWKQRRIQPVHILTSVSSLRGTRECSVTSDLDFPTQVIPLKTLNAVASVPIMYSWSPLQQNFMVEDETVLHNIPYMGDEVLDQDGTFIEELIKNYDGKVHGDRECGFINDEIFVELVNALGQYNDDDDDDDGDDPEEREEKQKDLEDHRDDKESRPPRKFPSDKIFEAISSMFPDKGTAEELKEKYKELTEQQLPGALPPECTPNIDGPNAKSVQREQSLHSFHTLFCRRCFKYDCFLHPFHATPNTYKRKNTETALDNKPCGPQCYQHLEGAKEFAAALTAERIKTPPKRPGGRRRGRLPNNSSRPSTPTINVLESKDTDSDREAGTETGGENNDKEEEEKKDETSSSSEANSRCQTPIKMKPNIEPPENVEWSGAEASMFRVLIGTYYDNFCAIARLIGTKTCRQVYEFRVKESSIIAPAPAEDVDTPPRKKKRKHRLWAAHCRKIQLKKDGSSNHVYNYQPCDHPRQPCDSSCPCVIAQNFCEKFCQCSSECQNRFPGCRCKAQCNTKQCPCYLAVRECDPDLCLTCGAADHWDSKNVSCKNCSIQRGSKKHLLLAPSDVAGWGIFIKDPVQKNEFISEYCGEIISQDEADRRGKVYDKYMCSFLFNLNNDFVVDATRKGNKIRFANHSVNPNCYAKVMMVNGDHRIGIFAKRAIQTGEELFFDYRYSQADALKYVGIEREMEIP", "UniProt Q96SW2, sequence (whole entry, looked up)": "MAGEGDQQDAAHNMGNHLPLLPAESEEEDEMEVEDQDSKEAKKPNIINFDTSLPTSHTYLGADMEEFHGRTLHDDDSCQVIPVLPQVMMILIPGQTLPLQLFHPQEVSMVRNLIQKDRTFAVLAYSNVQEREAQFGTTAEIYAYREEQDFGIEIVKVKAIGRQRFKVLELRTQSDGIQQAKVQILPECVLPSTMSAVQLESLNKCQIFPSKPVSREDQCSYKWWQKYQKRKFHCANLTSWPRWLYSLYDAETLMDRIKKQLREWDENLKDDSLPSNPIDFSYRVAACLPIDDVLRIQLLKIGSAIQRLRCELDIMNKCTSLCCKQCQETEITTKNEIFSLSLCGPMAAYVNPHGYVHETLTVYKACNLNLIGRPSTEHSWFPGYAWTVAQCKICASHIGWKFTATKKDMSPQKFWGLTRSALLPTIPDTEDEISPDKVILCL", "UniProt P62942, sequence (whole entry, looked up)": "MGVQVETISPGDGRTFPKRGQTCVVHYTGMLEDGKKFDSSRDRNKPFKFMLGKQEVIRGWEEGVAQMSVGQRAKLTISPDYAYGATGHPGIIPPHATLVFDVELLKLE", "UniProt P51575, sequence (whole entry, looked up)": "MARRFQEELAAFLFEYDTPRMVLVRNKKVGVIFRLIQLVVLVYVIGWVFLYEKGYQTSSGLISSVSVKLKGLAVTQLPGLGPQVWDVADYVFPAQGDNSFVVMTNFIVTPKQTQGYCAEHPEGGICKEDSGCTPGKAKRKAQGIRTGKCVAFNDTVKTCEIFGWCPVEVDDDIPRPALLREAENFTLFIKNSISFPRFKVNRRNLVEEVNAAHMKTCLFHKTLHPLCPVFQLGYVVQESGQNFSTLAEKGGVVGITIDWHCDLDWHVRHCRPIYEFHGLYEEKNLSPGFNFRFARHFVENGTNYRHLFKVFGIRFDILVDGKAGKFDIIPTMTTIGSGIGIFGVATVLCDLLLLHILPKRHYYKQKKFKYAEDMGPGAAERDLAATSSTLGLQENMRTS"}
{"Compound": "COc1cc(C(=O)C(=O)N2CCCC[C@H]2C(=O)OC(CCCc2cccnc2)CCCc2cccnc2)cc(OC)c1OC", "target": "FKBP1A (Homo sapiens, UniProt P62942)", "test": "enzyme activity, inhibitor, PPIase", "conditions": "10 °C", "measurement": "Ki", "result": "130 nM"}
{"Compound": "O=C1CC(SC2=NCCS2)C(=O)N1c1ccc(Br)cc1 (centres unmarked)", "target": "Histone acetyltransferase RTT109 with Vps75", "test": "enzyme activity, inhibitor, HTS, CPM-based, dose response", "measurement": "IC50", "result": "> 125 µM"}
{"Compound": "CC[C@@H]1[C@H](F)C(=O)N[C@@H]1COc1nccc2cc(C(N)=O)c(OC)cc12", "target": "ATR (Homo sapiens, UniProt Q13535)", "test": "ATP probe binding, KiNativ profiling, measured: ATP probe site", "system": "THP-1 cell lysate", "measurement": "IC50", "result": "> 5 µM"}
{"Compound": "Cc1[nH]c2ccccc2c1CCNCc1ccc(/C=C/C(=O)NO)cc1", "target": "ALDH2", "test": "inhibitor, competition pulldown", "system": "SW620 and MV4-11 lysate", "conditions": "1 h", "measurement": "Kd", "result": "> 30.2 µM"}
{"Compound": "CC(C)c1ccc(S(=O)(=O)Nc2ccc(O)c(Cl)c2)cc1", "target": "Histone acetyltransferase RTT109 with Vps75", "test": "enzyme activity, inhibitor, HTS, CPM-based, dose response", "measurement": "IC50", "result": "> 125 µM"}
{"Compound": "C/C=C/C(=O)CCCCCC(=O)N1CCN(c2nc(-c3cnc(N)nc3C(F)F)nc(N3CCOCC3)n2)CC1", "target": "PIK3CA", "measurement": "Ki", "result": "12 nM"}
{"Compound": "CCCCOc1ccc(CC(=O)NO)cc1", "target": "ALDH2", "test": "inhibitor, competition pulldown", "system": "SW620 and MV4-11 lysate", "conditions": "1 h", "measurement": "Kd", "result": "0.585 µM"}
{"Compound": "C=CC(=O)NCCCCC(=O)N1CCN(c2nc(-c3cnc(N)nc3C(F)F)nc(N3CCOCC3)n2)CC1", "target": "PIK3CA", "measurement": "Ki", "result": "5.86 nM"}
{"Compound": "Cc1ccc(C(=O)Nc2ccc(S(=O)(=O)O)c3cc(S(=O)(=O)O)cc(S(=O)(=O)O)c23)cc1NC(=O)c1cccc(NC(=O)Nc2cccc(C(=O)Nc3cc(C(=O)Nc4ccc(S(=O)(=O)O)c5cc(S(=O)(=O)O)cc(S(=O)(=O)O)c45)ccc3C)c2)c1", "target": "Uncharacterized protein (Trypanosoma brucei, UniProt Q38AT7)", "measurement": "Ki", "result": "6000 nM"}
{"Compound": "CC[C@H](C)[C@H](NC(=O)[C@H](Cc1ccc(OP(=O)(O)O)cc1)NC(=O)[C@H](CC(N)=O)NC(=O)[C@H](CC(C)C)NC(=O)[C@@H](N)CO)C(=O)N[C@@H](CC(=O)O)C(=O)N[C@@H](CC(C)C)C(=O)N[C@@H](CC(=O)O)C(=O)N[C@@H](CC(C)C)C(=O)N[C@H](C(=O)N[C@@H](CCCCN)C(=O)O)C(C)C", "target": "PTPN11 (Homo sapiens, UniProt Q06124, S502P)", "test": "enzyme activity, activator", "conditions": "pH 7.0, 2% DMSO, with: DiFMUP 100 µM, phosphopeptide", "measurement": "EC50", "result": "0.12 ± 0.02 µM"}
{"Compound": "Nc1ccn([C@@H]2O[C@H](COP(=O)(O)OP(=O)(O)O)[C@@H](O)[C@H]2O)c(=O)n1", "target": "RNASE1 (Bos taurus, UniProt P61823)", "test": "binding, native mass spectrometry", "system": "surface-deposited protein", "conditions": "100-fold diluted", "measurement": "Kd", "result": "3.9 ± 0.2 µM"}
{"Compound": "CC[C@H]1OC(=O)[C@H](C)[C@@H](O[C@H]2C[C@@](C)(OC)[C@@H](O)[C@H](C)O2)[C@H](C)[C@@H](O[C@@H]2O[C@H](C)C[C@H](N(C)C)[C@H]2O)[C@](C)(O)C[C@@H](C)CN(C)[C@H](C)[C@@H](O)[C@]1(C)O", "target": "uncharacterized protein (Saccharopolyspora erythraea, UniProt A4F7P9)", "test": "inhibitor", "conditions": "pH 7.6, 20 °C, with: p-nitrophenyl-β-D-glucopyranoside", "measurement": "Ki", "result": "440000 ± 50000 nM"}
{"Compound": "O=C(Nc1ccc([N+](=O)[O-])cc1Cl)c1cc(Cl)ccc1O", "target": "Anoctamin-1 (Ano1, Mus musculus, UniProt Q8BHY3, R864A)", "test": "chloride current, whole-cell patch clamp", "system": "HEK-293T TMEM16F knockout", "measurement": "EC50", "result": "13.2 ± 2.46 µM"}
{"Compound": "CCN(CC)Cc1ccc2cc(COC(=O)Nc3ccc(C(=O)NO)cc3)ccc2c1", "target": "ALDH2", "test": "inhibitor, competition pulldown", "system": "SW620 and MV4-11 lysate", "conditions": "1 h", "measurement": "Kd", "result": "> 30.2 µM"}
{"Compound": "c1ccc(Nc2nc(-c3ccccc3)ns2)cc1", "target": "Histone acetyltransferase RTT109 with Vps75", "test": "enzyme activity, inhibitor, HTS, CPM-based, dose response", "measurement": "IC50", "result": "> 125 µM"}
{"Compound": "Nc1ncnc2c1ncn2[C@@H]1O[C@H](COP(=O)(O)OP(=O)(O)OP(=O)(O)O)[C@@H](O)[C@H]1O", "target": "P2X purinoceptor 1 (P2RX1, Homo sapiens, UniProt P51575)", "test": "ion current, agonist, two-electrode voltage clamp", "system": "Xenopus oocytes", "measurement": "EC50", "result": "0.76 µM"}
{"Compound": "CCCCCCCCCc1ccc(C(=O)Nc2cc(C)ccc2C(=O)OC)cc1", "target": "PLK1 (Homo sapiens, UniProt P53350)", "test": "degrader, western blot", "system": "PC-3", "conditions": "23 h", "measurement": "DC50", "result": "> 60 µM"}
{"Compound": "O=C(NO)c1cnc(NC2(c3ccccc3)CC2)nc1", "target": "ALDH2", "test": "inhibitor, competition pulldown", "system": "SW620 and MV4-11 lysate", "conditions": "1 h", "measurement": "Kd", "result": "> 30.2 µM"}
{"Compound": "Cc1cccc(Nc2nc(-c3ccccc3)no2)c1", "target": "Histone acetyltransferase RTT109 with Vps75", "test": "enzyme activity, inhibitor, HTS, CPM-based, dose response", "measurement": "IC50", "result": "> 125 µM"}
{"Compound": "C[C@H](O)[C@@H](O)[C@@H](O)[C@H](O)C=O", "target": "fucose-binding lectin LecB (Pseudomonas aeruginosa, UniProt A0A0H2ZE85)", "measurement": "Ki", "result": "490 ± 70 nM"}
{"Compound": "O=S1(=O)C=C(Sc2nnc[nH]2)c2ccccc21", "target": "Histone acetyltransferase RTT109 with Vps75", "test": "enzyme activity, inhibitor, HTS, CPM-based, dose response", "measurement": "IC50", "result": "> 125 µM"}
{"Compound": "COc1cc(C)[nH]c(=O)c1CN1CCc2c(Cl)cc([C@H](OC)C3COC3)c(Cl)c2C1=O", "target": "EZH2 (Homo sapiens, UniProt Q15910)", "test": "DSF, extrapolated from Tm", "conditions": "PRC2 with activator peptide", "measurement": "Ki", "result": "0.0054 nM"}
{"Compound": "CNC(=O)[C@@]12C[C@@H]1[C@@H](n1cnc3c(NC)nc(C#C[c-]4cccc4)nc31)[C@H](O)[C@@H]2O.[Fe+2].c1cc[cH-]c1", "target": "ADRA2C (Homo sapiens, UniProt P18825)", "test": "radioligand binding", "measurement": "Ki", "result": "858 nM"}
{"Compound": "N[C@@H]1C[C@]1(F)c1ccc(C(F)(F)F)cc1 (relative stereo)", "target": "tyramine oxidase (Arthrobacter sp.)", "test": "enzyme activity, competitive inhibitor, Lineweaver-Burk plot", "measurement": "Ki", "result": "1300 ± 300 nM"}
{"Compound": "CN1CCc2c(c3ccccc3n2Cc2ccc(C(=O)NO)cc2)C1", "target": "ALDH2", "test": "inhibitor, competition pulldown", "system": "SW620 and MV4-11 lysate", "conditions": "1 h", "measurement": "Kd", "result": "> 30.2 µM"}
{"Compound": "COc1cc(Nc2ncc3c(n2)-c2ccc(Cl)cc2C(c2c(F)cccc2OC)=NC3)ccc1C(=O)NCCOCCOCCNC(=O)COc1cccc2c1C(=O)N(C1CCC(=O)NC1=O)C2=O (centres unmarked)", "target": "PTK2B (Homo sapiens, UniProt Q14289)", "test": "binding, kinobead competition", "system": "MV4-11 cell lysate", "measurement": "EC50", "result": "> 30 µM"}
{"Compound": "COc1ccc(-c2noc(Nc3ccc(Cl)cc3)n2)cc1", "target": "Histone acetyltransferase RTT109 with Vps75", "test": "enzyme activity, inhibitor, HTS, CPM-based, dose response", "measurement": "IC50", "result": "> 125 µM"}
{"Compound": "Cc1ccc(C2(F)CC2N)cc1 (centres unmarked)", "target": "tyramine oxidase (Arthrobacter sp.)", "test": "enzyme activity, competitive inhibitor, Lineweaver-Burk plot", "measurement": "Ki", "result": "160 ± 10 nM"}
{"Compound": "Nc1ccccc1SC1=CS(=O)(=O)c2ccccc21", "target": "Histone acetyltransferase RTT109 with Vps75", "test": "enzyme activity, inhibitor, HTS, CPM-based, dose response", "measurement": "IC50", "result": "> 125 µM"}
{"Compound": "NCc1cc2c(cc1F)C(=O)N(C1CCC(=O)NC1=O)C2 (centres unmarked)", "target": "NEK7/CRBN (Homo sapiens, UniProt Q8TDX7+Q96SW2)", "test": "degrader, Western blot", "system": "Hep3B", "conditions": "6 h", "measurement": "DC50", "result": "~0.1 µM"}
{"Compound": "O=C(CS(=O)(=O)c1cccc2nsnc12)Nc1cccc(Br)c1", "target": "Histone acetyltransferase RTT109 with Vps75", "test": "enzyme activity, inhibitor, HTS, CPM-based, dose response", "measurement": "IC50", "result": "> 125 µM"}
{"Compound": "O=C(O)CCC(=O)C(=O)O", "target": "gltA (Klebsiella pasteurii, UniProt A0A9Q9S525)", "measurement": "Ki", "result": "177000 ± 7000 nM"}
